Measurements pooled from the literature.
± gives the spread as reported.
Genome polyprotein NS3 helicase domain: Genome polyprotein, NS3 helicase domain (Hepatitis C virus genotype 1b, UniProt Q9WMX2)
DRD3: D(3) dopamine receptor (DRD3, Homo sapiens, UniProt P35462)
KCNQ3/KCNQ2: Voltage-gated potassium channel, KQT; KCNQ2(Kv7.2)/KCNQ3(Kv7.3) (KCNQ3/KCNQ2, Homo sapiens, UniProt O43525+O43526)

target | assay | test system | conditions | inhibition | SMILES
Serine/threonine-protein kinase TAO2 (TAOK2, Homo sapiens, UniProt Q9UL54) | kinase activity, inhibitor | – | 1 µM | -4% | COc1cc2ncnc(Nc3ccc(Oc4ccccc4)c(C)c3C)c2cc1OC
Genome polyprotein NS3 helicase domain | DNA binding, inhibitor | hepatitis C virus | 100 µM, added: Cy5-dT15 DNA | 1% | COc1ccc(/C=C2\COc3ccc(C)cc3C2=O)cc1O
Kappa-type opioid receptor (OPRK1, Cavia porcellus, UniProt P41144) | binding | guinea pig brain | 1 µM, added: [3H]U-69593 | 5% | C[C@H]1c2nn(C)cc2[C@H]2C[C@@H]1N(Cc1ccccc1)C[C@]2(C)O
Cyclin-dependent kinase 12, with cyclin K (CDK12, Homo sapiens, UniProt Q9NYV4) | kinase activity, inhibitor, ADP-Glo | – | 0.2222 µM | 65.2% | Cn1cc(-n2cnc3c(NCc4nc5cc(Cl)c(Cl)cc5[nH]4)nc(N4CCOCC4)nc32)cn1
tyrosinase | enzyme activity, inhibitor | – | 100 µM, added: levodopa | 26.7 ± 2.07% | COc1ccc(C2NCCc3cc(O)c(O)cc32)cc1O (stereo not shown)
Genome polyprotein NS3 helicase domain | DNA binding, inhibitor | hepatitis C virus | 100 µM, added: Cy5-dT15 DNA | 0% | FC(F)(F)c1ccccc1-n1ccnc1
Cyclin-dependent kinase 2 (CDK2, Homo sapiens, UniProt P24941) | ATP-site probe binding, ActivX profiling | THP-1 cell lysate | 0.04 mM, Lys1 site | -4% | CC[C@@H]1[C@H](F)C(=O)N[C@@H]1COc1nccc2cc(C(N)=O)c(OC)cc12
DRD3 | radioligand binding | – | concentration not given, added: [3H]N-methylspiperone | 99.1% | O=C1c2ccccc2CCCN1CCCCN1CCN(c2ccccn2)CC1
Muscarinic acetylcholine receptor M3 (CHRM3, Homo sapiens, UniProt P20309) | radioligand binding, radioligand displacement | – | 10 µM, mean of replicates | -28.7% | O=C(NO)c1ccc(CN2CCCCc3ccccc32)c(F)c1
Genome polyprotein NS3 helicase domain | DNA binding, inhibitor | hepatitis C virus | 100 µM, added: Cy5-dT15 DNA | 0% | CC(C)OC(=O)C(C)(C)Oc1ccc(C(=O)c2ccc(Cl)cc2)cc1
Insulin-like receptor (daf-2, Caenorhabditis elegans, UniProt Q968Y9) | inhibitor, radiometric phosphocellulose | – | 10 µM, added: ATP 0.2 mM | ~45% | CS(=O)(=O)CCNCc1ccc(-c2ccc3ncnc(Nc4ccc(OCc5cccc(F)c5)c(Cl)c4)c3c2)o1
Genome polyprotein NS3 helicase domain | DNA binding, inhibitor | hepatitis C virus | 100 µM, added: Cy5-dT15 DNA | 1% | COC(=O)C(N)Cc1ccc(Cl)cc1.Cl (racemic)
Diamine oxidase [copper-containing] (AOC1, Homo sapiens, UniProt P19801) | enzyme activity, inhibitor | – | 10 µM | 27.4% | NC/C(=C\F)COc1cccc(Cn2c(=S)[nH]c(=O)c3[nH]cnc32)c1
KCNQ3/KCNQ2 | ion current, antagonist, SyncroPatch patch clamp | HEK293 | 10 µM | 7% | Cn1c(=O)c2[nH]cnc2n(C)c1=O
Tyrosine-protein kinase BTK (BTK, Homo sapiens, UniProt Q06187) | probe binding, competitive chemoproteomics | human PBMCs | 10 µM | > 90% | COc1ccc(F)cc1C(=O)NCc1ccc(-c2nn([C@@H](C)C(F)(F)F)c(N)c2C(N)=O)cc1
KCNQ3/KCNQ2 | ion current, antagonist, SyncroPatch patch clamp | HEK293 | 10 µM | 11% | Nc1c(Br)cc(Br)cc1CN[C@H]1CC[C@H](O)CC1
DRD3 | radioligand binding, PDSP competition binding | – | 10 µM | < 50% | OCCCN1CC[C@@H]2C[C@H]1c1cc(-c3ccc(C(F)(F)F)cc3)ccc12
Glutamate receptor 2 (Homo sapiens, UniProt P42262) | ion current, negative allosteric modulator, SyncroPatch patch clamp | HEK293 | 30 µM | 1% | O=C1NC(=O)C(c2ccccc2)(c2ccccc2)N1
Genome polyprotein NS3 helicase domain | DNA binding, inhibitor | hepatitis C virus | 100 µM, added: Cy5-dT15 DNA | 1% | Oc1c2ccccc2c2c3c(cccc13)N=N2

Some of these lines once more:
target | assay | test system | conditions | inhibition | SMILES
Genome polyprotein NS3 helicase domain | DNA binding, inhibitor | hepatitis C virus | 100 µM, added: Cy5-dT15 DNA | 0% | CC(C)OC(=O)C(C)(C)Oc1ccc(C(=O)c2ccc(Cl)cc2)cc1
Insulin-like receptor (daf-2, Caenorhabditis elegans, UniProt Q968Y9) | inhibitor, radiometric phosphocellulose | – | 10 µM, added: ATP 0.2 mM | ~45% | CS(=O)(=O)CCNCc1ccc(-c2ccc3ncnc(Nc4ccc(OCc5cccc(F)c5)c(Cl)c4)c3c2)o1
Genome polyprotein NS3 helicase domain | DNA binding, inhibitor | hepatitis C virus | 100 µM, added: Cy5-dT15 DNA | 1% | COC(=O)C(N)Cc1ccc(Cl)cc1.Cl (racemic)
